# Measured values from different studies.
# ± gives the spread as reported.
# IDE: Insulin-degrading enzyme (IDE, Homo sapiens, UniProt P14735)
# Sequence of UniProt P14735 (whole entry, looked up): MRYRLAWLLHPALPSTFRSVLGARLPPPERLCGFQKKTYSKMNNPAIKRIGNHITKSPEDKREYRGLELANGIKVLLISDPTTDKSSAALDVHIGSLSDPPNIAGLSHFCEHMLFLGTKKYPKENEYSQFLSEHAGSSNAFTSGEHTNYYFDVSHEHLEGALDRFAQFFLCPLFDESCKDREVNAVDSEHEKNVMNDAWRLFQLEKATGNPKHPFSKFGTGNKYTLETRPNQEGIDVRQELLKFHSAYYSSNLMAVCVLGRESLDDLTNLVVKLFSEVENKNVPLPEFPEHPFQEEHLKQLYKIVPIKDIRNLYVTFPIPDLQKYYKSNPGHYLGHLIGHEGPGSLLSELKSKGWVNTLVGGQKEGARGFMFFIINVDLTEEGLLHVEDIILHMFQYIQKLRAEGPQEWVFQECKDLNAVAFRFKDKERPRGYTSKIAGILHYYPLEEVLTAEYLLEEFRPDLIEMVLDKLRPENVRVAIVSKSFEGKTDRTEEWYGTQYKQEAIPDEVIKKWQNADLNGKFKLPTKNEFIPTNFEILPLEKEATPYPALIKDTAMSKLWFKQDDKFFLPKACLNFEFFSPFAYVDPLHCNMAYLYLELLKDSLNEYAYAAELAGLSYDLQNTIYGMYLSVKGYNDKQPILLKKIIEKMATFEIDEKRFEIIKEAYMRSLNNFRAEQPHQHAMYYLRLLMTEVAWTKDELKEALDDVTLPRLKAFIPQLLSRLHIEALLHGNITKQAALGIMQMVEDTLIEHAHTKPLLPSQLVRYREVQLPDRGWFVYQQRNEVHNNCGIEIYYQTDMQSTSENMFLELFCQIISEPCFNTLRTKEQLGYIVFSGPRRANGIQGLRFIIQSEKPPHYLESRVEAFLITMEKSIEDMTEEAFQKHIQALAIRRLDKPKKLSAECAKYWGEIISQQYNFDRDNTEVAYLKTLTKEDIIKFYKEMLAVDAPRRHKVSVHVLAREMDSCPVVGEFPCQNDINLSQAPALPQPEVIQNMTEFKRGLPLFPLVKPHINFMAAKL
# SLC10A1: Hepatic sodium/bile acid cotransporter (SLC10A1, Homo sapiens, UniProt Q14973)
# Sequence of UniProt Q14973 (whole entry, looked up): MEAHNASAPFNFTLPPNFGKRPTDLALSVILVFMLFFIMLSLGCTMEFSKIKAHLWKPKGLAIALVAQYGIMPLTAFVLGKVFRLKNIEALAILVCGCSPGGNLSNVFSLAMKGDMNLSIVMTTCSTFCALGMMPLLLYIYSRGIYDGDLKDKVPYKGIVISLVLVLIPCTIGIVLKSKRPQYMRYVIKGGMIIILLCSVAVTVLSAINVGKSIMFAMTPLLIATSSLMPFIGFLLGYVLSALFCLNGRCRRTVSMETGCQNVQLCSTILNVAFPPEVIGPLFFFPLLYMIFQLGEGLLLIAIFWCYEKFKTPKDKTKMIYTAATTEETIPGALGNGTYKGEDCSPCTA
# MAPT neurofibrillary tangles: Microtubule-associated protein tau, neurofibrillary tangles (MAPT, Homo sapiens, UniProt P10636)
# Sequence of UniProt P10636 (whole entry, looked up): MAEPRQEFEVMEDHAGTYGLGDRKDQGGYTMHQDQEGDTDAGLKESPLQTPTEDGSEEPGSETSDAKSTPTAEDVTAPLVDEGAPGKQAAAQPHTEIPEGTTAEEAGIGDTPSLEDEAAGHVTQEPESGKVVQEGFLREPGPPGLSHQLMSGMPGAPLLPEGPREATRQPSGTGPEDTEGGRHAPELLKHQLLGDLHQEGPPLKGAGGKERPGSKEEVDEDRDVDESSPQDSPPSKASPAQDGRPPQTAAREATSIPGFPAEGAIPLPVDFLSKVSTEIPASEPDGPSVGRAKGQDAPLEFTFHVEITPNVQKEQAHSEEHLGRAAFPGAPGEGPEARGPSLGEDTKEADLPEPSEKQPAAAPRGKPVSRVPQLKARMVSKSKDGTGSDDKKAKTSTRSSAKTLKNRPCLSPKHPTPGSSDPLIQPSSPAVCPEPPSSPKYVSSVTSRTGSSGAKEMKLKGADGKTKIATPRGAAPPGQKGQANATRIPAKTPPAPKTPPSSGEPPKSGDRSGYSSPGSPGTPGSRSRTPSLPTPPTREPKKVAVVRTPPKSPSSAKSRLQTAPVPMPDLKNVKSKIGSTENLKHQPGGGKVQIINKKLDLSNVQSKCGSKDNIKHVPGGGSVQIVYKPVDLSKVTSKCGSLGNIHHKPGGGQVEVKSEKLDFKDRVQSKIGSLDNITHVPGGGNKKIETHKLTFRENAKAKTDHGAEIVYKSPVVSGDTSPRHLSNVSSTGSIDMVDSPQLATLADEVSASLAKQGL
# Sequence of UniProt P11275 (whole entry, looked up): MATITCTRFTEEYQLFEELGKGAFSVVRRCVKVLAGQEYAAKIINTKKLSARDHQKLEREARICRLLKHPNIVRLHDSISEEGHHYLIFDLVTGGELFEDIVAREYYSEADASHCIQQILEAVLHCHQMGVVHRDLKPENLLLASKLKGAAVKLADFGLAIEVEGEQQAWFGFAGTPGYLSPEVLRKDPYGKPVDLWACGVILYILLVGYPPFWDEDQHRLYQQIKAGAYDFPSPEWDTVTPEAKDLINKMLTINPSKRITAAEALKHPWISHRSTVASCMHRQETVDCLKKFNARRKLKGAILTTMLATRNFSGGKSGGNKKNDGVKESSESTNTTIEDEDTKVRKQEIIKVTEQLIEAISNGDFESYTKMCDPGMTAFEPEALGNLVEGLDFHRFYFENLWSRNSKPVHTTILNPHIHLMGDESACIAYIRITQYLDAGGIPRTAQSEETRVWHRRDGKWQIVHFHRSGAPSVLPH
# Sequence of UniProt P11609 (whole entry, looked up): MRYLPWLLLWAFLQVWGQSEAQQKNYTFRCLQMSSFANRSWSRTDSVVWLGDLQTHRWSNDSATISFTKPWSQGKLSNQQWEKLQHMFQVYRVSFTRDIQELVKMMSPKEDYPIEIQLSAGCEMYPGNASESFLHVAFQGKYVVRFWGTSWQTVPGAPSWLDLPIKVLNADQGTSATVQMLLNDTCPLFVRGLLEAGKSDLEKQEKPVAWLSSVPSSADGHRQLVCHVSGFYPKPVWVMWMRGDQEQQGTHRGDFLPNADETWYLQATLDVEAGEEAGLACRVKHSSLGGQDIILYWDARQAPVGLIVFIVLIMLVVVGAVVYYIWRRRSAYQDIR
# Sequence of UniProt Q99808 (whole entry, looked up): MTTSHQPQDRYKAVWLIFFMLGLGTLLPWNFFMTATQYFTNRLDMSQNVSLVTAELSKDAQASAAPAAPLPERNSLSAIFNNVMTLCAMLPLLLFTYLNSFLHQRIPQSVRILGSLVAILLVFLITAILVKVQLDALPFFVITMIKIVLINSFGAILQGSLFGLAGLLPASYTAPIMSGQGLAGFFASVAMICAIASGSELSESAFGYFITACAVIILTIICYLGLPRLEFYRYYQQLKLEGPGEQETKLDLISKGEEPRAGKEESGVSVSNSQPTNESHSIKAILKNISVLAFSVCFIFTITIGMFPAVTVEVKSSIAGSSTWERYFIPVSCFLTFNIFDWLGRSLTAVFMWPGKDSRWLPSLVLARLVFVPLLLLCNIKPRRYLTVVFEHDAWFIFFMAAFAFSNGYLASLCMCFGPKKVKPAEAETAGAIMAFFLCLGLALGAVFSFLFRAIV
Structure (SMILES),target,assay,system,conditions,Ki [µM]
O=S(=O)(Nc1cccn(O)c1=S)C1CC1,IDE,"substrate degradation, inhibitor",,"mean of insulin, Aβ, substrate V",45
CC(C)[C@H](NC(=O)CC[C@@H](C)[C@H]1CC[C@H]2[C@@H]3[C@H](O)C[C@@H]4C[C@H](O)CC[C@]4(C)[C@H]3CC[C@]12C)C(=O)O,SLC10A1,"transporter uptake, inhibitor, radiometric",,,6.1
NS(=O)(=O)c1cccn(O)c1=S,IDE,"substrate degradation, inhibitor",,"mean of insulin, Aβ, substrate V",50
Nc1ncnc2c1ncn2[C@@H]1O[C@H](COP(=O)(O)OP(=O)(O)OC[C@H]2OC(O)[C@H](O)[C@@H]2O)[C@@H](O)[C@H]1O (stereo partly drawn),"malonyl-CoA reductase, C-terminal domain (Chloroflexus aurantiacus, UniProt A9WIU3)",competitive inhibitor,,"pH 8.0, 25 °C, added: NADPH, malonyl-CoA 1 mM",1100 ± 140
CCCCCCCCCCCCCC[C@@H](O)[C@@H](O)[C@H](CO[C@H]1O[C@H](CO)[C@H](O)[C@H](O)[C@H]1O)NC(=O)CCCCCCCc1ccc(OC)cc1,"Cd1d1 (Mus musculus, UniProt P11609)",competitive binding on microarray,,added: surface-printed ligand,0.45 ± 0.15
C[C@H](CCC(=O)NCC(=O)O)[C@H]1CC[C@H]2[C@@H]3CC[C@@H]4C[C@H](O)CC[C@]4(C)[C@H]3C[C@H](O)[C@]12C,SLC10A1,"transporter uptake, inhibitor, radiometric",,,13.6
Cc1ccc(NS(=O)(=O)c2cccs2)c(=S)n1O,IDE,"substrate degradation, inhibitor",,"mean of insulin, Aβ, substrate V",15
CCCc1ccc2c(c1)sc(=O)n2CCNC12CC3CC(CC(C3)C1)C2,"Sigma-2 receptor (Cavia porcellus, UniProt H0V073)",radioligand binding,guinea pig brain,added: [3H]DTG with (+)-pentazocine,0.0692 ± 0.00556
C[C@H](CCC(=O)NCCS(=O)(=O)O)[C@H]1CC[C@H]2[C@@H]3CC[C@@H]4C[C@H](O)CC[C@]4(C)[C@H]3C[C@H](O)[C@]12C,SLC10A1,"transporter uptake, inhibitor, radiometric",,,13.3
Cc1cc(NS(=O)(=O)c2cccs2)c(=S)n(O)c1,IDE,"substrate degradation, inhibitor",,"mean of insulin, Aβ, substrate V",12
O=C(O)Cc1cn2nc(-c3ccc(Cl)cc3)ccc2n1,"Calcium/calmodulin-dependent protein kinase type II subunit alpha (Rattus norvegicus, UniProt P11275)","binding, competitor","HEK293T overexpressing CaMKIIα, whole-cell homogenate",added: [3H]HOCPCA,2.24
O=C(/C=C/c1ccc([N+](=O)[O-])cc1)c1nccs1,"Microtubule-associated protein tau, fibrils (MAPT, Homo sapiens, UniProt P10636)","fibril binding, thioflavin T competition",,"1 µM fibrils, added: thioflavin T 4 µM",> 1
Nc1ccc(-c2ccc3cc(OCCOCCN4CCNC4=O)ccc3n2)cc1,MAPT neurofibrillary tangles,"binding, radioligand competition",AD brain homogenate,"2 h, 37 °C, added: [3H]THK-523",0.078 ± 0.007
OC[C@H]1O[C@@H](n2cnc3c(O)ncnc32)[C@H](O)[C@@H]1O,"SLC29A1 (Homo sapiens, UniProt Q99808)","transporter uptake, inhibitor, radiometric",,,25
On1ccccc1=S,IDE,"substrate degradation, fluorescence polarisation",,mean of physiological substrates,101
CN1CCC2(CC1)c1ccccc1N(Cc1ccc(C(=O)NO)s1)C2c1cccc(Cl)c1 (stereo not drawn),"Histone deacetylase 8 (Schistosoma mansoni, UniProt A5H660)","enzyme activity, inhibitor, steady-state kinetics",,,0.21
O=S(=O)(Nc1ccc(=S)n(O)c1)c1cccs1,IDE,"substrate degradation, inhibitor",,"mean of insulin, Aβ, substrate V",43
Nc1ccc(-c2ccc3cc(OCCOCCOCCOCCOCCOCCF)ccc3n2)cc1,MAPT neurofibrillary tangles,"binding, radioligand competition",AD brain homogenate,"2 h, 37 °C, added: [3H]THK-523",> 1

# Some of these lines once more:
Structure (SMILES),target,assay,system,conditions,Ki [µM]
C[C@H](CCC(=O)NCCS(=O)(=O)O)[C@H]1CC[C@H]2[C@@H]3CC[C@@H]4C[C@H](O)CC[C@]4(C)[C@H]3C[C@H](O)[C@]12C,SLC10A1,"transporter uptake, inhibitor, radiometric",,,13.3
O=S(=O)(Nc1cccn(O)c1=S)C1CC1,IDE,"substrate degradation, inhibitor",,"mean of insulin, Aβ, substrate V",45
